Measurements pooled from the literature.
Each numbered part is a random draw from the data of one study; scales do not carry over between parts.

Series 1 — method: protein binding microarray; molecule type: double-stranded DNA, one strand shown; matrix: in vitro; concentration: not given; baseline: not given; direction: higher = stronger binding
Target: Histone acetyltransferase KAT6A, winged helix 1, GST fusion (KAT6A, Homo sapiens, UniProt Q92794, residues 1-85)
Notes: 8-mer, flanks averaged, mean of 2 arrays, mostly near background
Residues (chain): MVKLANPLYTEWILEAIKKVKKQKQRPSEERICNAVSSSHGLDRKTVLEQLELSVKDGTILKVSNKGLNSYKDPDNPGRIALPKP
Oligonucleotide	E-score
AGAGGACC	-0.0988
ACTCTGAC	-0.064
GACGTAGC	0.104
GGAGTTTA	-0.129
ACCCCGGC	0.312

Series 2 — method: protein-binding microarray; molecule type: double-stranded DNA, one strand shown; matrix: in vitro; concentration: 2200 nM top; notes: 60-bp whole probe; added: salmon DNA 0.4 mg/ml; baseline: random background probes; direction: higher = stronger binding; shared flanks, not repeated: GCCTAGCAC … GTCTTGATTCGCTTGACGCTGCTG
Target: Interferon regulatory factor 7, full length, phosphomimetic (IRF7, Homo sapiens, UniProt Q92985, residues 1-503, S471D/S472D/S475D/S476D/S477D/S483D/S484D/S487D)
Construct (chain): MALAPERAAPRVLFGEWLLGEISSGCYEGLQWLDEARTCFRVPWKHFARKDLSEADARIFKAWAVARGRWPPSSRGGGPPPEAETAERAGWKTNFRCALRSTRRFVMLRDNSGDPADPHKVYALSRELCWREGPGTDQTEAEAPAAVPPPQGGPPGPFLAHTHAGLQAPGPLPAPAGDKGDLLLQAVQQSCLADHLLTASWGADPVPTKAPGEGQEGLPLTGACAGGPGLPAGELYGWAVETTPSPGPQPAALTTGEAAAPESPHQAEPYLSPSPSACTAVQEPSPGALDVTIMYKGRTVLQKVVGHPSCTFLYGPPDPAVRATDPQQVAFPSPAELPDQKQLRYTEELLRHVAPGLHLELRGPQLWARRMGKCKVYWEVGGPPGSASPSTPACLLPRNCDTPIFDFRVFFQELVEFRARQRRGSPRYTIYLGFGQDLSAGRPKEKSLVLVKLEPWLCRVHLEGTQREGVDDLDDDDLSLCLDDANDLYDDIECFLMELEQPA
Oligonucleotide	fitted relative affinity
TCACCGTTTCTTCTAGAACTGTGCTAG	2.11 z-score
GACTGTTTCGACACTGGGGACGTGCTA	2.26 z-score
TTAGTTATCGGTTTCGGTTAGTGCTAG	7.94 z-score
AACGGACTGGGTCTCGGGACGTGCTAG	-0.816 z-score
TTAGGACTGGGTTTCGGCTAGTGCTAG	0.662 z-score
TTTGATTTCGGGACTGGATTAGTGCTA	1.75 z-score
GGTGTTTTACAGGTTCTCTTTGTGCTA	0.846 z-score

Series 3 — method: universal PBM; molecule type: double-stranded DNA, one strand shown; matrix: in vitro; concentration: not given; direction: higher = stronger binding
Target: Sal-like protein 4, full length isoform B (SALL4, Homo sapiens, UniProt Q9UJQ4-2, residues 1-616)
Notes: 8-mer, flanks averaged, mean of replicates
Target sequence (chain): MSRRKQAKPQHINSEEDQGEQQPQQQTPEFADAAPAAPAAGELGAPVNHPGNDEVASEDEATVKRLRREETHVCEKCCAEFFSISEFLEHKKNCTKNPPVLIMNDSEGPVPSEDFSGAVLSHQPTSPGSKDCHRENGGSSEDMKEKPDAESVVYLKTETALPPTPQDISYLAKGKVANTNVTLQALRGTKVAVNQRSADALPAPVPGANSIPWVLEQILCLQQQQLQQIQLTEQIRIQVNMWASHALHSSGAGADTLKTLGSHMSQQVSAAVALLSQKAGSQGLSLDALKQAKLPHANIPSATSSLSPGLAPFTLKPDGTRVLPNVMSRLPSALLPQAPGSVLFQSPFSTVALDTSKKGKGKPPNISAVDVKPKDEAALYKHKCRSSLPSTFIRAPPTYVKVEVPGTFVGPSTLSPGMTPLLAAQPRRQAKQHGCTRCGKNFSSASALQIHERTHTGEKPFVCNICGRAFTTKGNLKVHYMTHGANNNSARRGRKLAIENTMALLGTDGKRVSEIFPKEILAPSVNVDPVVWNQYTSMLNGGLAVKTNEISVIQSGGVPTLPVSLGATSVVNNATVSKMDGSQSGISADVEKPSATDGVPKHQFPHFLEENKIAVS
Oligonucleotide	E-score
ATTGGTCC	0.078
AGTCTGGG	-0.277
GAGAGGGA	-0.144
AGCCCACG	-0.225
ACATTACC	0.078
AGGGTGTA	0.0724
CGATGACG	-0.15

Other studies, line by line
Substance	target	assay	system	setting	scale	measurement	value
PhoQ, residues 284 288 289 292 302 303 GLASVI	PhoP, residues 12 14 15 18 19 HLGGL (Escherichia coli, UniProt P23836)	Sort-seq, measured: YFP reporter	E. coli	PhoQ-PhoP variant library, added: 10 µM Mg2+	baseline: high Mg2+ state, higher = stronger signaling	fold induction	1.33

Some of these lines once more (series 2):
Oligonucleotide	fitted relative affinity
AACGGACTGGGTCTCGGGACGTGCTAG	-0.816 z-score
TTAGGACTGGGTTTCGGCTAGTGCTAG	0.662 z-score
TTTGATTTCGGGACTGGATTAGTGCTA	1.75 z-score
